Measured values pooled from the literature.
Compare with care: the assays were run in different laboratories. ± gives the spread as reported.
FGFR1: Fibroblast growth factor receptor 1 (FGFR1, Homo sapiens, UniProt P11362)
TMPRSS2: Transmembrane protease serine 2 (TMPRSS2, Homo sapiens, UniProt O15393)
GP1 NS2B-NS3 protease: Genome polyprotein, NS2B-NS3 protease (GP1, West Nile virus, UniProt Q9Q6P4)
AGTR1: Type-1 angiotensin II receptor (AGTR1, Homo sapiens, UniProt P30556)
RPA1: Replication protein A 70 kDa DNA-binding subunit (RPA1, Homo sapiens, UniProt P27694)
Mycosin-1: Mycosin-1 (Mycolicibacterium thermoresistibile, UniProt G7CDQ2)
PDEB1: Class 1 phosphodiesterase PDEB1 (PDEB1, Trypanosoma brucei, UniProt Q8WQX9)
SLC12A2: Solute carrier family 12 member 2 (SLC12A2, Homo sapiens, UniProt P55011)
TMPRSS11D: Transmembrane protease serine 11D (TMPRSS11D, Homo sapiens, UniProt O60235)
PTGS2: Prostaglandin G/H synthase 2 (PTGS2, Homo sapiens, UniProt P35354)

Compound	target	assay	test system	setting	scale	inhibition
FC(F)(F)c1cnc2[nH]cc(Cc3ccc(OCc4ccccc4)cc3)c2c1	FGFR1	enzyme activity, inhibitor		0.1 µM		-4%
Cc1cccc(O)c1C(=O)Nc1ccc(CN)cc1	TMPRSS2	enzyme activity, inhibitor		10 µM, added: Boc-QAR-AMC		< 20%
Oc1c(C(Nc2nccs2)c2cccc(OCc3ccccc3)c2)ccc2cccnc12 (stereo not shown)	GP1 NS2B-NS3 protease	enzyme activity, inhibitor		10 µM, 0.1% CHAPS, added: tetrapeptide substrate		72 ± 1.38%
CN(C1COC1)C(C)(C)/C=C(\C#N)C(=O)N1CCC[C@H]1Cn1nc(-c2ccc(Oc3ccccc3)cc2F)c2c(N)ncnc21	BTK (Homo sapiens, UniProt Q06187)			0.1 µM, mean		> 90%
OC(c1ccc(OCc2ccccc2)cc1)c1c[nH]c2ncc(C(F)(F)F)cc12 (stereo not shown)	FGFR1	enzyme activity, inhibitor		0.1 µM		-1%
CCc1nc2ccc(Cl)cn2c1C(=O)NC/C=C(\C)CC/C=C(\C)CCC=C(C)C	MT-CYB (Bos taurus, UniProt P00157)	complex III activity	bovine heart submitochondrial particles	10 µM		50%
O=C(Nc1ccc(S(=O)(=O)Nc2cnc3ccccc3n2)cc1)c1ccc(Cl)cc1Cl	PPIA (Homo sapiens, UniProt P62937)	enzyme activity, inhibitor		10 µM		7.5%
CCOC(=O)NS(=O)(=O)c1sc(CC(C)C)cc1-c1ccc2c(c1)CN(CC)C(=O)C2(C)C	AGTR1	ligand displacement, radioligand		10 µM, cell membranes		15%
N[C@@H]1CCCc2c1[nH]c1ccc(Cl)cc21	SLC6A4 (Homo sapiens, UniProt P31645)	ligand displacement, radioligand		10 µM		98.4%
FC(F)(F)c1cnc2[nH]cc(Cc3cccc(Oc4ccccc4)c3)c2c1	FGFR1	enzyme activity, inhibitor		1 µM		64%
COc1cc(C(=O)NC2CCC(N3CCN(CC4CCC5(CCCC5)C4)CC3)CC2)c(F)cc1Nc1ncc2c(n1)N(C1CCCC1(F)F)CC(F)(F)C(=O)N2C (stereo not shown)	EPHA8 (Homo sapiens, UniProt P29322)	cell-free assay, TR-FRET		10 µM		0.73%
CC(C)C1=CCC2C(=C1)CCC1C(C)(C(=O)O)CCCC21C (stereo not shown)	RPA1	helix destabilization, EMSA dsDNA probe		200 µM		no effect
NCc1ccc(NC(=O)c2ccc3ccccc3c2O)cc1	Kallikrein-6 (Homo sapiens, UniProt Q92876)	enzyme activity, inhibitor		10 µM		80%
CCC(CC)c1nc(-c2ccc(O)cc2O)cs1	Semaphorin-3C, with neuropilin-1 (SEMA3C, Homo sapiens, UniProt Q99985)	SEMA3C binding, inhibitor		25 µM, added: SEMA3C	baseline: DMSO	> 50%
C/C(=N/NC(=N)N)c1ccc(/C(C)=N/NC(=N)N)cc1	Mycosin-1	protease activity, inhibitor, quenched fluorescent peptide		150 µM, added: 20 µM fluorogenic peptide substrate	baseline: DMSO control	63.8%
COc1ccc(Nc2c(C(N)=O)cnc3c(C)cc(-c4ccc5cnn(C)c5c4)cc23)cc1	PDEB1	enzyme activity, inhibitor		10 µM		34%
CO[C@@H]([C@@H](O)[C@H](O)C(=O)CO)[C@@H](C)O	3-dehydroquinate synthase, chloroplastic (DHQS, Arabidopsis thaliana, UniProt Q8VYV7)	enzyme activity		concentration not given		no inhibition
CNS(=O)(=O)c1cc([N+](=O)[O-])ccc1NCCC(C)(C)C	SLC12A2	chloride influx	HEK293 transfected with SLC12A2	10 µM	baseline: DMSO	17.7 ± 3.9%
NCc1ccc(NC(=O)c2ccc(F)cc2O)cc1	TMPRSS11D	enzyme activity, fluorogenic substrate		10 µM, added: Boc-VPR-AMC		< 20%
CCOC(=O)c1c(NC(=O)CN2CCN(c3ccccn3)CC2)sc2c1CCC(c1ccccc1)C2 (stereo not shown)	LDHA (Homo sapiens, UniProt P00338)	enzyme activity, inhibitor, fluorescence		100 µg/mL		34.7%
Cc1ccc(C(=O)Nc2ccc(CN)cc2)c(O)c1	TMPRSS11D	enzyme activity, inhibitor, fluorescence		10 µM		21.2%
OC(c1cccc(OC(F)(F)F)c1)c1c[nH]c2ncc(C(F)(F)F)cc12 (stereo not shown)	FGFR1	enzyme activity, inhibitor		1 µM		22%
CN(C)S(=O)(=O)c1ccc(S(=O)(=O)N2CCC(n3c(=O)[nH]c4ccccc43)CC2)cc1	mfd, C-terminal domain (Escherichia coli, UniProt P30958)	ATPase activity		concentration not given		85%
OC(c1cccc(Cl)c1)c1c[nH]c2ncc(C(F)(F)F)cc12 (stereo not shown)	FGFR1	enzyme activity, inhibitor		1 µM		25%
CCCC(CCC)C(=O)[O][Pt]([NH2])([NH2])([Cl])([Cl])[O]C(=O)c1ccccc1OC(C)=O	PTGS2	enzyme activity, COX activity kit	PSN1	1 µM, 24 h		4.1%

Compound	target	assay	test system	setting	scale	inhibition
Cc1ccc(O)c(C(=O)Nc2ccc(CN)cc2)c1	Plasminogen (PLG, Homo sapiens, UniProt P00747)	enzyme activity, inhibitor		10 µM		< 20%
CCCCCCNc1ccc([N+](=O)[O-])cc1S(=O)(=O)NC	SLC12A2	chloride influx	HEK293 transfected with SLC12A2	100 µM	baseline: DMSO	29.4 ± 2.8%
COC(=O)c1cccc(-c2cc(C)c3ncc(C(N)=O)c(N(C)c4cccc(OC)c4)c3c2)c1	PDEB1	enzyme activity, inhibitor		10 µM		59%
Cc1cc(O)c(C=O)c2c1C(=O)Oc1c(CO)c(O)c3c(c1O2)C(O)OC3=O (stereo not shown)	PDE5A (Homo sapiens, UniProt O76074)	enzyme activity, inhibitor		5 µg/mL		60.4%
Cc1sc2c(c1C)C(c1ccc(Cl)cc1)=N[C@@H](CC(=O)NCCCCNC(=O)COc1cccc3c1C(=O)N(C1CCC(=O)NC1=O)C3=O)c1nnc(C)n1-2 (stereo partly shown)	von Hippel-Lindau disease tumor suppressor, with elongin B/C (VHL, Homo sapiens, UniProt P40337)	TR-FRET		2.1 pM to 30 µM, 90 min		inactive
NC(CNC(CNC(CC(=O)O)C(=O)O)C(=O)O)C(=O)O (stereo not shown)	angiotensin-converting enzyme (rabbit)			0.5 mM, Zn-depleted buffer, extended incubation		~50%
FC(F)(F)c1cnc2[nH]cc(Cc3ccc(Cl)c(C(F)(F)F)c3)c2c1	FGFR1	enzyme activity, inhibitor		1 µM		16%
CCCCOC(=O)NS(=O)(=O)c1sc(CC(C)C)cc1-c1ccc(F)c(Cn2ccnc2)c1	AGTR1	ligand displacement, radioligand		10 µM, cell membranes		8%
CC(=O)N[C@@H]1[C@@H](O)[C@H](O)[C@@H](CO)N[C@@H]1COP(=O)(O)OP(=O)(O)OC/C=C(/C)CC/C=C(\C)CCC=C(C)C	Peptidoglycan glycosyltransferase (Clostridioides difficile, UniProt Q189X7)	transglycosylase activity, HPLC		500 µM, added: NBD-lipid II		50%
O=C(O[C@H](CO)C(F)(F)F)N1C[C@@H]2[C@H](C1)[C@H]2c1ccn(-c2ccc(F)nc2)n1	Neutral cholesterol ester hydrolase 1 (Mus musculus, UniProt Q8BLF1)	ABPP	mouse brain lysate	0.2 µmol/L		no inhibition
Fc1ccc(F)c(Cc2c[nH]c3ncc(C(F)(F)F)cc23)c1	FGFR1	enzyme activity, inhibitor		1 µM		78%
COc1cc2ccc(C(=O)Nc3ccc(CN)cc3)c(O)c2cc1OC	TMPRSS2	enzyme activity, inhibitor		10 µM, added: Boc-QAR-AMC		< 20%
CCOC(=O)NS(=O)(=O)c1sc(CC(C)C)cc1-c1ccc2c(c1)CCN(S(C)(=O)=O)C2	AGTR1	ligand displacement, radioligand		10 µM, cell membranes		19%
O=C(NC1CCNCC1)c1ccc2ccccc2c1O	TMPRSS11D	enzyme activity, fluorogenic substrate		10 µM, added: Boc-VPR-AMC		< 20%
Oc1c(C(Nc2nccs2)c2ccccc2OCc2ccccc2)ccc2cccnc12 (stereo not shown)	GP1 NS2B-NS3 protease	enzyme activity, inhibitor		25 µM, 0.1% CHAPS, added: tetrapeptide substrate		83.1 ± 1.08%
Cc1nc(CN(C)c2ncnc3c2cnn3CCO)cs1	Heat shock protein HSP 90-beta, N-terminal domain (HSP90AB1, Homo sapiens, UniProt P08238)	binding, fluorescence polarization		10 µM, added: FITC-geldanamycin		44 ± 10.3%
OC(c1cccc(Oc2ccccc2)c1)c1c[nH]c2ncc(C(F)(F)F)cc12 (stereo not shown)	FGFR1	enzyme activity, inhibitor		0.1 µM		15%
O=C(O)c1ccc(CS(=O)(=O)CC(=O)C23CC4CC(CC(C4)C2)C3)o1	HSD11B1 (Homo sapiens, UniProt P28845)	enzyme activity in cells, inhibitor	HEK293	1 µM		4%
O=C(c1ccncc1)N1N=C2/C(=C/c3ccc4ccccc4c3)CCCC2C1c1ccc2ccccc2c1 (stereo not shown)	PTGS2	enzyme activity		concentration not given		90.1%
CCCC(/C=N/NC(=N)N)=N\NC(=N)N	Mycosin-1	protease activity, inhibitor, quenched fluorescent peptide		150 µM, added: 20 µM fluorogenic peptide substrate	baseline: DMSO control	54.3%
CC(C)=C1C=C2CCC3C(C)(C(=O)O)CCCC3(C)C2CC1 (stereo not shown)	RPA1	helix destabilization, EMSA dsDNA probe		200 µM		no effect
Cc1c(-c2c3c(N)nnc(C)c3nn2-c2ccccc2)oc2ccccc12	FGFR1	enzyme activity, inhibitor, ELISA		0.1 µM		31.8%
O=C1N[C@@H](CO)C[C@@H](O)c2ccccc21 (relative stereo)	PARP16 (Homo sapiens, UniProt Q8N5Y8)	enzyme activity, inhibitor		10 µM		95%
CC(C)c1ccc(C(=O)Nc2ccc(CN)cc2)c(O)c1	TMPRSS11D	enzyme activity, inhibitor, fluorescence		10 µM		35%

A few entries again:
Compound	target	assay	test system	setting	scale	inhibition
Oc1c(C(Nc2nccs2)c2cccc(OCc3ccccc3)c2)ccc2cccnc12 (stereo not shown)	GP1 NS2B-NS3 protease	enzyme activity, inhibitor		10 µM, 0.1% CHAPS, added: tetrapeptide substrate		72 ± 1.38%
CN(C1COC1)C(C)(C)/C=C(\C#N)C(=O)N1CCC[C@H]1Cn1nc(-c2ccc(Oc3ccccc3)cc2F)c2c(N)ncnc21	BTK (Homo sapiens, UniProt Q06187)			0.1 µM, mean		> 90%
OC(c1ccc(OCc2ccccc2)cc1)c1c[nH]c2ncc(C(F)(F)F)cc12 (stereo not shown)	FGFR1	enzyme activity, inhibitor		0.1 µM		-1%
CCc1nc2ccc(Cl)cn2c1C(=O)NC/C=C(\C)CC/C=C(\C)CCC=C(C)C	MT-CYB (Bos taurus, UniProt P00157)	complex III activity	bovine heart submitochondrial particles	10 µM		50%
O=C(Nc1ccc(S(=O)(=O)Nc2cnc3ccccc3n2)cc1)c1ccc(Cl)cc1Cl	PPIA (Homo sapiens, UniProt P62937)	enzyme activity, inhibitor		10 µM		7.5%
